Experimental data gathered from unrelated publications.
Numbered parts are unrelated; each lists some results of a single study.
UniProt Q9NYY3, sequence (whole entry, looked up): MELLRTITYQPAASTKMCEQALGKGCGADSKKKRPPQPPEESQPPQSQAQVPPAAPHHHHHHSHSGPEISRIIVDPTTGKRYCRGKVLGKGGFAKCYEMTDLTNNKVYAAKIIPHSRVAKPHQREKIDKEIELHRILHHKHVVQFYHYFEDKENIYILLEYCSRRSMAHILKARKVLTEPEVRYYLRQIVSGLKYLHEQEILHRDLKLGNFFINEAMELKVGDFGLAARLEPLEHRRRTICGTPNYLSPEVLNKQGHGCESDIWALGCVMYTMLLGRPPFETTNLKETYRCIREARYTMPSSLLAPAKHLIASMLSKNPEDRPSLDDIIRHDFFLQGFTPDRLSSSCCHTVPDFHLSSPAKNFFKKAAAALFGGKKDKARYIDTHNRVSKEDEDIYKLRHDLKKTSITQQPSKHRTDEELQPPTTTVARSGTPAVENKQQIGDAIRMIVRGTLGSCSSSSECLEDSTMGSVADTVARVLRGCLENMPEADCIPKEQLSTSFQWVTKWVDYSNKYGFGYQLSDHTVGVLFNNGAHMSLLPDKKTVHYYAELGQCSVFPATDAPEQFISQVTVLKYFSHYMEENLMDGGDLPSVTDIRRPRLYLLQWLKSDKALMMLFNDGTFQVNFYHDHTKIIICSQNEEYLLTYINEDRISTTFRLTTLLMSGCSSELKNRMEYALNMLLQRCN
UniProt P21127, sequence (whole entry, looked up): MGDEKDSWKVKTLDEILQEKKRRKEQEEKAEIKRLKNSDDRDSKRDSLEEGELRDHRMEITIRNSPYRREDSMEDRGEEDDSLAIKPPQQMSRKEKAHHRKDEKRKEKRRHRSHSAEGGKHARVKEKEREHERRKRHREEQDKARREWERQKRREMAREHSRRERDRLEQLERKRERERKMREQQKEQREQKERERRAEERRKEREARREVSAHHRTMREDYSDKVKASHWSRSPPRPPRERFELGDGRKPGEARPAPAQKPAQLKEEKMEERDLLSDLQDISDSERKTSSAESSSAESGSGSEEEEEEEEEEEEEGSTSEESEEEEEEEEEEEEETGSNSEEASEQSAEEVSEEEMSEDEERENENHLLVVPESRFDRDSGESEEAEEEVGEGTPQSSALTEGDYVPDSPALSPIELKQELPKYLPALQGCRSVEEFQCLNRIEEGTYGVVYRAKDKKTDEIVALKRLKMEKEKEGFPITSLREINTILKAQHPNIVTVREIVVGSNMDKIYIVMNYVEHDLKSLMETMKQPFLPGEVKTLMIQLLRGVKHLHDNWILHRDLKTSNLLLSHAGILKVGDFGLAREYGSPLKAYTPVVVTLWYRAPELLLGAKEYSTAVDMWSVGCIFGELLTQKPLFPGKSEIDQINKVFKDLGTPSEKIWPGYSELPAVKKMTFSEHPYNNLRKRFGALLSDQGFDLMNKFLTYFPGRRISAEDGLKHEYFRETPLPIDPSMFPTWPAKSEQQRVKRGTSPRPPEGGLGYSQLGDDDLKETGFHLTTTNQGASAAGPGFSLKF
UniProt Q15349, sequence (whole entry, looked up): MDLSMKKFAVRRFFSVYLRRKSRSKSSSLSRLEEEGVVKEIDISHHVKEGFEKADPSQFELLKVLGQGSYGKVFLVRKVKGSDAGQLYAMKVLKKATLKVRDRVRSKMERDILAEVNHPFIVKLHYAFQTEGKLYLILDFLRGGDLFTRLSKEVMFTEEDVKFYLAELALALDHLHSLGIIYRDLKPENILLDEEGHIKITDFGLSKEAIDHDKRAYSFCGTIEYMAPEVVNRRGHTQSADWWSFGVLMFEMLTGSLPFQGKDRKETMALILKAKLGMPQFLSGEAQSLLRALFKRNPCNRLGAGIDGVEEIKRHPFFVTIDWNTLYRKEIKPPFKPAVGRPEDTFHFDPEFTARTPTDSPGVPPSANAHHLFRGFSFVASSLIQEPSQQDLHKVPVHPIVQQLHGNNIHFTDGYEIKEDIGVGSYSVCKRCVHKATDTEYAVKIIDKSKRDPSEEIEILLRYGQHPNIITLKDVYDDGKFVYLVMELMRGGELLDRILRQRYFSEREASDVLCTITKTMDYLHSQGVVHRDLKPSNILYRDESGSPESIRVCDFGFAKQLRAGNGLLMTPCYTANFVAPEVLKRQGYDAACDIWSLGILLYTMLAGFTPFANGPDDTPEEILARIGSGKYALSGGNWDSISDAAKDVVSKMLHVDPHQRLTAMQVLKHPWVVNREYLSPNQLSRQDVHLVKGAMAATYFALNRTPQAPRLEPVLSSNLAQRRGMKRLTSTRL
UniProt Q8WU08, sequence (whole entry, looked up): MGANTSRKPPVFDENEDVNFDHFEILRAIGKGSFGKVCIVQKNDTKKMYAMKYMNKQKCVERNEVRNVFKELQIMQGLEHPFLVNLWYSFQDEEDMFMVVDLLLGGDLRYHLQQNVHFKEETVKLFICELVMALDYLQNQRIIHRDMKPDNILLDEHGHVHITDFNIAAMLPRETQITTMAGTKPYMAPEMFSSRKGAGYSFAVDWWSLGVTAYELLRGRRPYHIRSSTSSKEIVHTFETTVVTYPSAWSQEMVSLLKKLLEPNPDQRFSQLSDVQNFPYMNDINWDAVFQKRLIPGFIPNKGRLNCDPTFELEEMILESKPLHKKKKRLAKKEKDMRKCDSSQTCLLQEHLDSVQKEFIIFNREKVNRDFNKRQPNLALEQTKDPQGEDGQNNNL
UniProt P61075, sequence (whole entry, looked up): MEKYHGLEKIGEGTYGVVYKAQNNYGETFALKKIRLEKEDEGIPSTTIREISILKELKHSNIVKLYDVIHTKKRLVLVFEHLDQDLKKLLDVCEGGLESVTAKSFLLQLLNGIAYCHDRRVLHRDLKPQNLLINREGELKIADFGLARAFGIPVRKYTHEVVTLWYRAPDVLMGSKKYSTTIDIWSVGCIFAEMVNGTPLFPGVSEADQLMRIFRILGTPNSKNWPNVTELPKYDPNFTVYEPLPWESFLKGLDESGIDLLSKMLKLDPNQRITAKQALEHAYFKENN
UniProt O14733, sequence (whole entry, looked up): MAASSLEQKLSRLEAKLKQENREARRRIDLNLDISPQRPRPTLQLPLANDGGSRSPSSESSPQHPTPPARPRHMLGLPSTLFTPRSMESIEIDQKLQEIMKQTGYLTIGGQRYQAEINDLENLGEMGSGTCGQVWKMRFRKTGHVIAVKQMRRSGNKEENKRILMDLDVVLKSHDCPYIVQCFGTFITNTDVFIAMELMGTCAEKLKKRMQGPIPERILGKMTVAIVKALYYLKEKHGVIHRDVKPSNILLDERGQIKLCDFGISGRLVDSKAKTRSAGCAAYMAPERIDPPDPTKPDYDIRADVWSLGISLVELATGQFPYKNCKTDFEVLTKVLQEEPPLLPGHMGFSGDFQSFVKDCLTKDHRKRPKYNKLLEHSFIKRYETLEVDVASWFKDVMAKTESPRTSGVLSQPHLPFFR
UniProt Q9P289, sequence (whole entry, looked up): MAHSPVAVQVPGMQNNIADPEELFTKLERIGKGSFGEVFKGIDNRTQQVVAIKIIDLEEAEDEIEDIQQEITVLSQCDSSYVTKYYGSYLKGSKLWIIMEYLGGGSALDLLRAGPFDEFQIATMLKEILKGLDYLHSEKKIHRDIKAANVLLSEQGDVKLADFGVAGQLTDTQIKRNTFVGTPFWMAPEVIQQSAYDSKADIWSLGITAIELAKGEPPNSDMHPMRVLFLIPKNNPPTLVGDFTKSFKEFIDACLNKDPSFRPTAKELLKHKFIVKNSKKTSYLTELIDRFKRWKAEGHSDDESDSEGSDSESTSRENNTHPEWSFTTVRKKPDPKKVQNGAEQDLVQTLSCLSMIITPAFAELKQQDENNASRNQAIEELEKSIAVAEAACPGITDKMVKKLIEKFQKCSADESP

Set 1 — concentration: 1 µM
Compound: C=CC(=O)N1CCC([C@@H]2CCNc3c(C(N)=O)c(-c4ccc(Oc5ccccc5)cc4)nn32)CC1
The inhibition was 36% (Dual specificity mitogen-activated protein kinase kinase 7 (MAP2K7, Homo sapiens, UniProt O14733); enzyme activity, inhibitor).
The inhibition was 47% (Dual specificity protein kinase TTK (TTK, Homo sapiens, UniProt P33981); enzyme activity, inhibitor).
Rhodopsin kinase GRK7 (GRK7, Homo sapiens, UniProt Q8WTQ7); enzyme activity, inhibitor — inhibition: 11%.
The inhibition was 21% (Ribosomal protein S6 kinase alpha-1, kinase domain 1 (RPS6KA1, Homo sapiens, UniProt Q15418); inhibitor).
It gave 14% for inhibition (Ribosomal protein S6 kinase alpha-2, kinase domain 2 (RPS6KA2, Homo sapiens, UniProt Q15349); inhibitor).
It gave 1% for inhibition (Serine/threonine-protein kinase 26 (STK26, Homo sapiens, UniProt Q9P289); enzyme activity, inhibitor).
Ephrin type-A receptor 6 (EPHA6, Homo sapiens, UniProt Q9UF33); cell-free assay — inhibition: 3%.
Cyclin-dependent kinase 2 homolog (CRK2, Plasmodium falciparum, UniProt P61075); enzyme activity, inhibitor — inhibition: 0%.
Serine/threonine-protein kinase MRCK beta (CDC42BPB, Homo sapiens, UniProt Q9Y5S2); enzyme activity, inhibitor — inhibition: 0%.
For Serine/threonine-protein kinase 32A (STK32A, Homo sapiens, UniProt Q8WU08); cell-free assay: inhibition read 0%.
The inhibition was 8% (Serine/threonine-protein kinase PLK2 (PLK2, Homo sapiens, UniProt Q9NYY3); enzyme activity, inhibitor).
eIF-2-alpha kinase GCN2 (EIF2AK4, Homo sapiens, UniProt Q9P2K8, S808G); inhibitor — inhibition: 10%.
The inhibition was 9% (Serine/threonine-protein kinase Nek7 (NEK7, Homo sapiens, UniProt Q8TDX7); enzyme activity, inhibitor).
The inhibition was 27% (Cyclin-dependent kinase 11B (CDK11B, Homo sapiens, UniProt P21127); enzyme activity, inhibitor).
Serine/threonine-protein kinase TAO2 (TAOK2, Homo sapiens, UniProt Q9UL54); enzyme activity, inhibitor — inhibition: 26%.
The inhibition was 7% (Mast/stem cell growth factor receptor Kit (KIT, Homo sapiens, UniProt P10721, T670I/V559D); enzyme activity, inhibitor).
The inhibition was 11% (Rho-associated protein kinase 2 (ROCK2, Homo sapiens, UniProt O75116); enzyme activity, inhibitor).

Set 2 — species: human; sample: microsomes or S9; concentration: 2 µM; time: 0.5 h
COC(=O)c1ccc(S(C)(=O)=O)c(COCCn2cncn2)c1Cl has a remaining compound of 0.507%.
The remaining compound of Cc1nc(O)[nH]c(=O)c1S(=O)(=O)Nc1ccccc1C(=O)NCc1ccccc1 is reported as 77%.
Cc1noc(C)c1S(=O)(=O)N1CCC(OCc2noc(C3CCCO3)n2)CC1 (stereo not drawn) has a remaining compound of 37.7%.
Cl/C(=C/c1cccc2nccn12)c1nc2ccccc2s1 gave a remaining compound of 0.779%.
CC(=O)Nc1cc2ccc(OC(C)=O)cc2oc1=O has a remaining compound of 5.4%.
With COc1cc(S(=O)(=O)N2CCC(C(N)=O)CC2)c(OC)cc1Cl the remaining compound was 85.7%.
The remaining compound of Cc1nc(-c2ccccc2)nc2sc3c(=O)[nH]cnc3c12 is reported as 24.1%.
The remaining compound of Cn1c(=O)c2c(ncn2CC(O)C/N=C2\CCCCCN2)n(C)c1=O (stereo not drawn) is reported as 94.4%.
The remaining compound of Cc1cccc2c1ccn2CC(=O)N1CCNC(=O)C1 is reported as 80.2%.
With CCOC(=O)C1=C(NC(=O)CSc2nnc(-c3cc(C)on3)o2)SC2CCCCC12 (stereo not drawn) the remaining compound was 44.7%.
O=C1OC2(CCCN(C(=O)Cc3cccc4ccccc34)C2)c2ccccc21 (stereo not drawn) gave a remaining compound of 1.26%.
With COc1cc(=O)[nH]cc1C(=O)N1CCCC1c1cncc(C)c1 (stereo not drawn) the remaining compound was 96.5%.
Cc1nc2ccccc2c(=O)n1-c1ccc(Cl)c(O[C@H]2CCN(C)C2)c1 gave a remaining compound of 92.5%.

Set 3 — effect on: enzyme activity; mode: inhibitor; concentration: 0.5 µM; baseline: control
Target: Receptor tyrosine-protein kinase erbB-2 (ERBB2, Homo sapiens, UniProt P04626)
With CC(C)n1cnc2c(Nc3cccc(Cl)c3)nc(NCCO)nc21 the remaining activity was 96.2%.
CCCCc1c(-c2ccc(O)cc2)[nH]c2nccnc12 gave a remaining activity of 97.7%.
The remaining activity of N#CC(c1ccnc(NCCc2cccnc2)n1)c1nc2ccccc2s1 (stereo not drawn) is reported as 104%.
O=C(c1ccccc1)c1ccc(N2CCOCC2)cc1O has a remaining activity of 94.8%.
NC(=O)c1ccc(-c2nc(-c3ccc4c(c3)OCCO4)c(-c3ccccn3)[nH]2)cc1 has a remaining activity of 97.9%.
O=C(O)/C=C/c1cc(Br)c(Br)c(Br)c1Br gave a remaining activity of 95.4%.
For CNc1cc2c(Nc3cccc(Br)c3)ncnc2cn1, the remaining activity was 28.9%.
The remaining activity of CC(C)(C)c1nc2c3cc[nH]c(=O)c3c3cc(F)ccc3c2[nH]1 is reported as 109%.
c1cc(-c2cnn3cc(-c4ccc(OCCN5CCCCC5)cc4)cnc23)ccn1 gave a remaining activity of 94.6%.
With Nc1nc(Nc2ccc(S(N)(=O)=O)cc2)nn1C(=S)Nc1c(F)cccc1F the remaining activity was 104%.
With C[C@@H](N)[C@H]1CC[C@H](C(=O)Nc2ccncc2)CC1 the remaining activity was 107%.
For O=C1NC(=O)/C(=C/c2ccc3c(c2)OC(F)(F)O3)S1, the remaining activity was 102%.
The remaining activity of N#C/C(=C(/N)SC1C=CC=CC1)c1cccc(C(O)c2ccncc2)c1 (stereo not drawn) is reported as 96.6%.
The remaining activity of CCN(CC)CCCCN1c2ccccc2Oc2ccc(Cl)cc21 is reported as 96.6%.
With CC(C)N(CCC(=O)c1ccc2ccccc2c1)Cc1ccccc1 the remaining activity was 98.7%.
O=Nc1c(-c2c(O)[nH]c3ccccc23)[nH]c2ccccc12 gave a remaining activity of 97.9%.
The remaining activity of NC(=O)c1cccc(-c2cc(Nc3ccc(OC(F)(F)F)cc3)ncn2)c1 is reported as 89.5%.
With O=C1c2ccccc2-c2nc3nnnn3nc21 the remaining activity was 22.2%.
With O=c1c(-c2ccc(F)cc2)c(-c2ccncc2)[nH]n1-c1ccc(Cl)cc1 the remaining activity was 103%.
For COc1cc2c(Nc3ccc(Br)cc3F)ncnc2cc1OCC1CCN(C)CC1, the remaining activity was 72.2%.

Set 4 — cell line: normal organoid sample G; technique: CellTiter-Glo; species: human; sample: normal-adjacent epithelium; concentration: 1 µM; baseline: DMSO
For O=C(NS(=O)(=O)c1ccc(NCC2CCOCC2)c([N+](=O)[O-])c1)c1ccc(N2CCN(Cc3ccc(C(F)(F)F)cc3-c3ccc(Cl)cc3)CC2)cc1Oc1cnc2[nH]ccc2c1, the viability was 100%.
Cc1ccc2[nH]c(CNCCCc3ccncc3)cc(=O)c2c1 has a viability of 98.3%.
O=C(Nc1cnc(Oc2ccc(F)cc2)nc1)N1CCc2ncccc2[C@@H]1c1ccc(F)cc1 has a viability of 116%.
The viability of Nc1nc(NCc2ccccc2)nc(-c2cccc(CO)c2)n1 is reported as 105%.
For C[C@@H](c1cccc(C#N)c1)n1cc(Cl)cc(C(N)=O)c1=N, the viability was 105%.
The viability of O=C1c2ccc(Nc3ccc(F)cc3F)cc2CCc2ccc(OC[C@H](O)CO)cc21 is reported as 125%.
For CN(C)[C@H]1CCN(c2cc(-c3ccccc3)nc3ccnn23)C1, the viability was 119%.
With CN(C)C(=O)Cn1cc(-c2ccc(-c3cncc4ccccc34)cc2)cn1 the viability was 78%.
The viability of O=C(O)c1cc(-c2ccc(C3CCNCC3)cc2)c2ccc(-c3ccc(C(F)(F)F)cc3)cc2c1 is reported as 124%.
The viability of CN1CCN(c2cnc3c(C4CCN(C(=O)c5ccc(OC(F)(F)F)cc5N)CC4)ncnc3c2)CC1 is reported as 110%.
O=C(NNS(=O)(=O)c1ccccc1)c1cc(-c2ccnnc2)ccc1F gave a viability of 104%.
The viability of N#CC1(c2ccccn2)CCN(Cc2cc(C(=O)N3CCCC3)c(=O)n3ccccc23)CC1 is reported as 116%.
With Cc1ccccc1Oc1cc(-n2c(=O)cc(C(F)(F)F)[nH]c2=O)c2ccccc2c1Cl the viability was 111%.
Cc1ccc2nc(CNCCCOc3ccccc3)cc(O)c2c1 gave a viability of 92.5%.
For CNC(=O)c1cc(C(=O)N[C@H]2[C@@H]3COC[C@@H]32)cc2c1O[C@@H](CF)[C@@H]2c1ccccc1, the viability was 93.6%.
With Cc1c(C(=O)O)cc(-c2ccc(C3CCNCC3)cc2)c2ccc(-c3ccc(C(F)(F)F)cc3)cc12 the viability was 102%.
For O=C(O)c1ccc(-c2c[nH]c3ncc(-c4ccccc4)cc23)cc1C1CCCC1, the viability was 111%.
With O=C(NNS(=O)(=O)c1ccccc1F)c1cc(F)cc(-c2ccccn2)c1 the viability was 83.5%.
Cc1c(NC(=O)c2ccc(C(C)(C)C)cc2)cccc1-c1cn(C)c(=O)c(Nc2ccc(C(=O)N3CCOCC3)cc2)n1 has a viability of 102%.
O=C(NCCN1CCOCC1)c1ccc2c(c1)C(=O)c1ccc(Nc3ccc(F)c(NC(=O)c4ccccc4)c3)cc1CC2 has a viability of 92%.
Nc1nc(NCc2ccccc2)nc(-c2ccccc2CO)n1 gave a viability of 113%.
For Cn1cnc2c(F)c(Nc3ccc(Br)cc3Cl)c(C(=O)NOCCO)cc21, the viability was 67.8%.
Cn1cc(Cl)c2c(Oc3c(F)cc(Nc4cc(Cl)nc(N)n4)cc3F)ccnc21 has a viability of 110%.
With CN(C(=O)c1ccccc1)c1cc(N(C)c2ccc3c(c2)CCc2ccc(C(=O)NCCN4CCOCC4)cc2C3=O)ccc1F the viability was 105%.
With Cc1c(Oc2ccc(F)cc2)c(OC(C)C)nn1-c1ccc(C2CC2)cn1 the viability was 107%.

Excerpt of the above (set 4):
Cc1ccc2[nH]c(CNCCCc3ccncc3)cc(=O)c2c1 has a viability of 98.3%.
O=C(Nc1cnc(Oc2ccc(F)cc2)nc1)N1CCc2ncccc2[C@@H]1c1ccc(F)cc1 has a viability of 116%.
The viability of Nc1nc(NCc2ccccc2)nc(-c2cccc(CO)c2)n1 is reported as 105%.
For C[C@@H](c1cccc(C#N)c1)n1cc(Cl)cc(C(N)=O)c1=N, the viability was 105%.
The viability of O=C1c2ccc(Nc3ccc(F)cc3F)cc2CCc2ccc(OC[C@H](O)CO)cc21 is reported as 125%.
For CN(C)[C@H]1CCN(c2cc(-c3ccccc3)nc3ccnn23)C1, the viability was 119%.
With CN(C)C(=O)Cn1cc(-c2ccc(-c3cncc4ccccc34)cc2)cn1 the viability was 78%.
The viability of O=C(O)c1cc(-c2ccc(C3CCNCC3)cc2)c2ccc(-c3ccc(C(F)(F)F)cc3)cc2c1 is reported as 124%.
